Assay results collected from several papers.
± gives the spread as reported.
lecA: PA-I galactophilic lectin (lecA, Pseudomonas aeruginosa, UniProt Q05097)
Sequence of UniProt Q05097 (whole entry, looked up): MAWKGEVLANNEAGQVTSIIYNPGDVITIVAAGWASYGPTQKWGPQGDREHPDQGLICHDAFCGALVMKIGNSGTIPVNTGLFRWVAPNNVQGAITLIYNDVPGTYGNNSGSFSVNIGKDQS
KEAP1 Kelch domain: Kelch-like ECH-associated protein 1, Kelch domain (KEAP1, Homo sapiens, UniProt Q14145)
Sequence of UniProt Q14145 (whole entry, looked up): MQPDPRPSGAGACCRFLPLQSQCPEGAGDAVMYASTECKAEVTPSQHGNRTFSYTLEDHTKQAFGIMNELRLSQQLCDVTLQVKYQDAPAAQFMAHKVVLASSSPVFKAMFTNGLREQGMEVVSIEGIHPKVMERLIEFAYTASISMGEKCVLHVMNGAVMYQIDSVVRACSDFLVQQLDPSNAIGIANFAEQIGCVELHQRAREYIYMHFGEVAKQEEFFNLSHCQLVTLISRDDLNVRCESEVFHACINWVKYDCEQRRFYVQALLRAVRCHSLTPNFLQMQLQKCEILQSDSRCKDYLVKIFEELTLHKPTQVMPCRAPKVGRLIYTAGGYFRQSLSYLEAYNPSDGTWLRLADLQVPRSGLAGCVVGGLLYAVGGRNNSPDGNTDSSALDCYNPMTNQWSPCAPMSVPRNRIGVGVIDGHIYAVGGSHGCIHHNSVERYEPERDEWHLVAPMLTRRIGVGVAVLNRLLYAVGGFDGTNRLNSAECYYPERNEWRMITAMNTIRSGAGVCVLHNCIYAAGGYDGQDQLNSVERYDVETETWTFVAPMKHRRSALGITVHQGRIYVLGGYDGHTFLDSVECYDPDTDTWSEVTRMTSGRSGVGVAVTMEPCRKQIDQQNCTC
Complement C3: Complement C3 (Homo sapiens, UniProt P01024)
Sequence of UniProt P01024 (whole entry, looked up): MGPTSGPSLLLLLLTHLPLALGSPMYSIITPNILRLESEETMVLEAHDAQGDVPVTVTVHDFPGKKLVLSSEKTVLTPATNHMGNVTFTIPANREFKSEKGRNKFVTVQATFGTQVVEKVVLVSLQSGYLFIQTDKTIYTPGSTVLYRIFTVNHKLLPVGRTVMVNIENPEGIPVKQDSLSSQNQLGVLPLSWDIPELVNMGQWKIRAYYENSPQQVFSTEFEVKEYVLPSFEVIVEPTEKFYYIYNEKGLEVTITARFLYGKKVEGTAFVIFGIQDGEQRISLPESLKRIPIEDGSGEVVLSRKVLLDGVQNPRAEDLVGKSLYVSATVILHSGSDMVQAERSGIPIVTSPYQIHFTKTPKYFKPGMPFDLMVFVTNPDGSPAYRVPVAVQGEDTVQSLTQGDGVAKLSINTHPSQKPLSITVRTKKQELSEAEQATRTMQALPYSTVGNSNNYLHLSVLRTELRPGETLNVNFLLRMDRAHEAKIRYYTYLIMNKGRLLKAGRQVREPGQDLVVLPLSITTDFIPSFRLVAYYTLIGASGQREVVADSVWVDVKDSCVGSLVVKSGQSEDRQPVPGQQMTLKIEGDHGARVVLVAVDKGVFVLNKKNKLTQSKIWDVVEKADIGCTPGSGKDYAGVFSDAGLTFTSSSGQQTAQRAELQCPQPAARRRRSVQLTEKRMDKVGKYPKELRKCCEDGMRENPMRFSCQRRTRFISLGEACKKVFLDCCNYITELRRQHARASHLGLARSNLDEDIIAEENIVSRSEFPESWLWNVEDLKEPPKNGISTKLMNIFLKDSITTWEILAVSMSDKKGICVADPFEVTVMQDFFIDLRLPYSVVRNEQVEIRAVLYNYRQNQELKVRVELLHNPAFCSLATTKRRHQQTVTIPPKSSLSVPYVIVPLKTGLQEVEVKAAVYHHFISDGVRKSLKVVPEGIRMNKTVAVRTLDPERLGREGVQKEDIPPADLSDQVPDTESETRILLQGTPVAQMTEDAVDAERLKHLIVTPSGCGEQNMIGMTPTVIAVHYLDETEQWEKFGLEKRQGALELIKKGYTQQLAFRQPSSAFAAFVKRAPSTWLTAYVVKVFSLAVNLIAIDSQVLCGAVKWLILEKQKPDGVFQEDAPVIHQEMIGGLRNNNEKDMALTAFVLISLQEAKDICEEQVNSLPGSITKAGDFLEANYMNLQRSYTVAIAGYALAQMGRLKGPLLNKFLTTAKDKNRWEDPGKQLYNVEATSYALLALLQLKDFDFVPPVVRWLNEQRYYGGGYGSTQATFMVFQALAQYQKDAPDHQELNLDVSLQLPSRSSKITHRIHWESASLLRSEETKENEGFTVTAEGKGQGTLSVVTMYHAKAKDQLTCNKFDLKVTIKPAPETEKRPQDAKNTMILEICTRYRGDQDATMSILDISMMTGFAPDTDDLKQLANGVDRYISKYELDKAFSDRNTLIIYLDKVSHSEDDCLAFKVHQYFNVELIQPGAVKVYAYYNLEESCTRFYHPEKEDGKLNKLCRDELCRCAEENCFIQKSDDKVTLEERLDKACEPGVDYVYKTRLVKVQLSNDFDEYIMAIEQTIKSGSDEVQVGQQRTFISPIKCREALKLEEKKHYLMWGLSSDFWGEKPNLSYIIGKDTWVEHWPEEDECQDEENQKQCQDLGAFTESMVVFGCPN
Sequence of UniProt O14786 (whole entry, unmodified, looked up): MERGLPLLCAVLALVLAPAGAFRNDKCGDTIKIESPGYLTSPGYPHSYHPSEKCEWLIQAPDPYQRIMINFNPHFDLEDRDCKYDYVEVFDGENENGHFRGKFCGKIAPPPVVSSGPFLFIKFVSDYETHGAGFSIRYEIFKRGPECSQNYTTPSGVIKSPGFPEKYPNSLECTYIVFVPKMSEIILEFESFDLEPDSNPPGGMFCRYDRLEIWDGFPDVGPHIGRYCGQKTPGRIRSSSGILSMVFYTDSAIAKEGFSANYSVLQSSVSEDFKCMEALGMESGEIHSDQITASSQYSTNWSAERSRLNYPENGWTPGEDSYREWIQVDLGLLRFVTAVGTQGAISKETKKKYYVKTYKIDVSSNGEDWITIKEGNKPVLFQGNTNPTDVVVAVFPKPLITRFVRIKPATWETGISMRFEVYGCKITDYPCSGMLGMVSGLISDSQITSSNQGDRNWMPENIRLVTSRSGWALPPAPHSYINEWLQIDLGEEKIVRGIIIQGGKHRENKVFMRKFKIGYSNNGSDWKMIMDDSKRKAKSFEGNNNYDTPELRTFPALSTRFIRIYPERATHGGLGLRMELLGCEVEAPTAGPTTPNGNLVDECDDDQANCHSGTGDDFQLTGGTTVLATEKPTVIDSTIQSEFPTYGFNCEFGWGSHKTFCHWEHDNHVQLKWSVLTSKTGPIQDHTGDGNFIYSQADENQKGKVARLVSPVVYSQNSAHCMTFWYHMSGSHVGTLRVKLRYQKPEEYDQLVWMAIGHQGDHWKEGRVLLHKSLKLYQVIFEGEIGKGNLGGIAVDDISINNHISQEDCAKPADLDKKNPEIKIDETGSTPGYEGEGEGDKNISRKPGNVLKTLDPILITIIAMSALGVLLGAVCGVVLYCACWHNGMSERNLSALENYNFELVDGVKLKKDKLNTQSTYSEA
Sequence of UniProt Q7LC44 (whole entry, unmodified, looked up): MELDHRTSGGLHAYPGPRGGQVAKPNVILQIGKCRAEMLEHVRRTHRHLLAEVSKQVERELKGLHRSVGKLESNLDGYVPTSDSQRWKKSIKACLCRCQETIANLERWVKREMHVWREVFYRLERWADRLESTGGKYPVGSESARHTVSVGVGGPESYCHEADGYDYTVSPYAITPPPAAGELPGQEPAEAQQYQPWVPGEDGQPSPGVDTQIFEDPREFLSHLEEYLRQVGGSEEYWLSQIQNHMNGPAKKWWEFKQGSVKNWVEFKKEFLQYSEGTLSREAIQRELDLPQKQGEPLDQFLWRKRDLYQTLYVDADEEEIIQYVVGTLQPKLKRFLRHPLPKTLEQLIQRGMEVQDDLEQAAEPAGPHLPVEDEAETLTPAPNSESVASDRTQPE

For `CC[C@H](C)[C@H](NC(=O)[C@H](CCCNC(=N)N)NC(C)=O)C(=O)N1CCC[C@H]1C(=O)N[C@@H](COP(=O)(O)O)C(=O)N[C@@H](Cc1ccc(O)cc1)C(=O)N[C@@H](CCCNC(=N)N)C(=O)N[C@@H](Cc1ccc(O)cc1)C(=O)N[C@@H](CCCNC(=N)N)C(N)=O`, the ΔH was -66.5 ± 0.6 kcal/mol (Activity-regulated cytoskeleton-associated protein, residues 207–277 (ARC, Homo sapiens, UniProt Q7LC44); binding, isothermal titration calorimetry; pH 7.4, 25 °C).
For `OC[C@H]1O[C@@H](Oc2ccc(OCc3cn([C@H]4[C@H](O)[C@@H](O)[C@H](c5cn([C@H]6[C@H](O)[C@@H](O)[C@H](n7cc(COc8ccc(O[C@@H]9O[C@H](CO)[C@H](O)[C@H](O)[C@H]9O)cc8)nn7)O[C@@H]6CO)nn5)O[C@@H]4CO)nn3)cc2)[C@H](O)[C@@H](O)[C@H]1O`, the ΔH was -15.2 ± 0.2 kcal/mol (lecA; isothermal titration calorimetry; 25 °C).
For `CC(=O)N[C@@H](CO)C(=O)N[C@@H](C)C(=O)N[C@@H](CCCCN)C(=O)N[C@@H](C)C(=O)N[C@@H](C)C(=O)N[C@@H](CC(=O)O)C(=O)N[C@@H](CC(=O)O)C(=O)N1CCC[C@H]1C(=O)N[C@@H](CCC(=O)O)C(=O)N[C@@H](CC(N)=O)C(=O)NCC(=O)N[C@@H](CCC(=O)O)C(=O)N[C@@H](CCCNC(=N)N)C(=O)N[C@@H](CCC(=O)O)C(=O)N[C@@H](CO)C(=O)N[C@@H](Cc1c[nH]cn1)C(=O)N[C@H](C(=O)N1CCC[C@H]1C(=O)N[C@H](C(=O)N[C@@H](CO)C(N)=O)C(C)C)[C@@H](C)O`, the ΔH was -15.11 ± 0.08 kcal/mol (KEAP1 Kelch domain; isothermal titration calorimetry; Kelch domain; pH 7, 298.15 K).
With `N=C(N)NCCC[C@H](NC(=O)[C@H](CCCNC(=N)N)NC(=O)[C@H](CC(N)=O)NC(=O)[C@H](CCCNC(=N)N)NC(=O)[C@@H]1CCCN1C(=O)[C@H](CCCCN)NC(=O)[C@H](CCCCN)NC(=O)[C@H](CCC(N)=O)NC(=O)[C@H](CC(=O)O)NC(=O)[C@@H](N)Cc1c[nH]c2ccccc12)C(=O)O` the ΔH was -18.5 kcal/mol (Neuropilin-1 (NRP1, Homo sapiens, UniProt O14786); binding, ITC; pH 7.4, 30 °C).
The ΔH of `C#Cc1ccc(O[C@@H]2O[C@H](CO)[C@H](O)[C@H](O)[C@H]2O)cc1` is reported as -9.5 ± 0.6 kcal/mol (lecA; ITC; 5% DMSO).
For `O=C(COCCc1ccccc1)N[C@@H](Cc1cn(CCNC(=O)c2ccc(S[C@@H]3O[C@H](CO)[C@H](O)[C@H](O)[C@H]3O)cc2)nn1)C(=O)NCCO`, the ΔH was -9.8 ± 0.263 kcal/mol (lecA; binding, isothermal titration calorimetry; 25 °C).
`OC[C@H]1O[C@@H](Oc2ccc(-c3cn([C@H]4[C@H](O)[C@@H](O)[C@H](c5cn([C@H]6[C@H](O)[C@@H](O)[C@H](n7cc(-c8ccc(O[C@@H]9O[C@H](CO)[C@H](O)[C@H](O)[C@H]9O)cc8)nn7)O[C@@H]6CO)nn5)O[C@@H]4CO)nn3)cc2)[C@H](O)[C@@H](O)[C@H]1O` gave a ΔH of -16.8 ± 0.5 kcal/mol (lecA; isothermal titration calorimetry; 25 °C).
The ΔH of `CC[C@H](C)[C@H](NC(C)=O)C(=O)N[C@H]1CSSC[C@@H](C(=O)N[C@H](C(N)=O)[C@@H](C)O)NC(=O)[C@H](CCCNC(=N)N)NC(=O)[C@H](Cc2c[nH]cn2)NC(=O)[C@H](C)NC(=O)CNC(=O)[C@H](Cc2c[nH]c3ccccc23)NC(=O)[C@H](CC(=O)O)NC(=O)[C@H](CCC(N)=O)NC(=O)[C@H](Cc2ccc(OC)cc2)NC(=O)[C@H](C(C)C)NC1=O` is reported as -18 kcal/mol (Complement C3; ITC; pH 7.4, 25 °C).
`O=C(Cc1ccccc1O)N[C@@H](Cc1cn(CCNC(=O)c2ccc(S[C@@H]3O[C@H](CO)[C@H](O)[C@H](O)[C@H]3O)cc2)nn1)C(=O)NCCO` gave a ΔH of -9.89 ± 0.143 kcal/mol (lecA; binding, isothermal titration calorimetry; 25 °C).
The ΔH of `CC(=O)N[C@@H](CO)C(=O)N[C@@H](CC(C)C)C(=O)N[C@@H](CCC(=O)O)C(=O)N[C@@H](CCC(=O)O)C(=O)N1CCC[C@H]1C(=O)N[C@@H](Cc1c[nH]cn1)C(=O)N[C@@H](COP(=O)(O)O)C(=O)N1CCC[C@H]1C(=O)N[C@@H](CCC(=O)O)C(=O)N[C@H](C(=O)NCC(=O)N[C@@H](CCC(=O)O)C(=O)N[C@@H](CCCCN)C(=O)N[C@H](C(=O)N[C@H](C(=O)N[C@@H](C)C(=O)NCC(=O)N[C@@H](CCC(=O)O)C(=O)N[C@H](C(=O)N[C@@H](CC(N)=O)C(N)=O)C(C)C)C(C)C)C(C)C)[C@@H](C)O` is reported as -10.8 ± 0.14 kcal/mol (KEAP1 Kelch domain; isothermal titration calorimetry; Kelch domain; pH 7, 298.15 K).
`O=C(COCCCCc1ccccc1)N[C@@H](Cc1cn(CCNC(=O)c2ccc(S[C@@H]3O[C@H](CO)[C@H](O)[C@H](O)[C@H]3O)cc2)nn1)C(=O)NCCO` has a ΔH of -11.1 kcal/mol (lecA; binding, isothermal titration calorimetry; 25 °C).
`[N-]=[N+]=N[C@H]1[C@H](O)[C@@H](O)[C@H](n2cc(CO[C@@H]3O[C@H](CO)[C@H](O)[C@H](O)[C@H]3O)nn2)O[C@@H]1CO` has a ΔH of -11.6 ± 0.9 kcal/mol (lecA; isothermal titration calorimetry; 25 °C).
For `O=C(COc1ccccc1)N[C@@H](Cc1cn(CCNC(=O)c2ccc(S[C@@H]3O[C@H](CO)[C@H](O)[C@H](O)[C@H]3O)cc2)nn1)C(=O)NCCO`, the ΔH was -11 ± 0.837 kcal/mol (lecA; binding, isothermal titration calorimetry; 25 °C).
`OC[C@H]1O[C@@H](OCc2cn([C@@H]3O[C@H](CO)[C@@H](n4cc(CCCCc5cn([C@H]6[C@H](O)[C@@H](O)[C@H](n7cc(CO[C@@H]8O[C@H](CO)[C@H](O)[C@H](O)[C@H]8O)nn7)O[C@@H]6CO)nn5)nn4)[C@H](O)[C@H]3O)nn2)[C@H](O)[C@@H](O)[C@H]1O` has a ΔH of -14.3 ± 0.2 kcal/mol (lecA; isothermal titration calorimetry; 25 °C).
`CC[C@H](C)[C@H](NC(C)=O)C(=O)N[C@H]1CSSC[C@@H](C(=O)N[C@H](C(N)=O)[C@@H](C)O)NC(=O)[C@H](CCCNC(=N)N)NC(=O)[C@H](Cc2c[nH]cn2)NC(=O)[C@H](C)NC(=O)CNC(=O)[C@H](Cc2c[nH]c3ccccc23)NC(=O)[C@H](CC(=O)O)NC(=O)[C@H](CCC(N)=O)NC(=O)[C@H](Cc2ccc(O)cc2)NC(=O)[C@H](C(C)C)NC1=O` has a ΔH of -13.9 kcal/mol (Complement C3; ITC; pH 7.4, 25 °C).

Excerpt of the above:
`CC[C@H](C)[C@H](NC(C)=O)C(=O)N[C@H]1CSSC[C@@H](C(=O)N[C@H](C(N)=O)[C@@H](C)O)NC(=O)[C@H](CCCNC(=N)N)NC(=O)[C@H](Cc2c[nH]cn2)NC(=O)[C@H](C)NC(=O)CNC(=O)[C@H](Cc2c[nH]c3ccccc23)NC(=O)[C@H](CC(=O)O)NC(=O)[C@H](CCC(N)=O)NC(=O)[C@H](Cc2ccc(O)cc2)NC(=O)[C@H](C(C)C)NC1=O` has a ΔH of -13.9 kcal/mol (Complement C3; ITC; pH 7.4, 25 °C).
For `OC[C@H]1O[C@@H](Oc2ccc(OCc3cn([C@H]4[C@H](O)[C@@H](O)[C@H](c5cn([C@H]6[C@H](O)[C@@H](O)[C@H](n7cc(COc8ccc(O[C@@H]9O[C@H](CO)[C@H](O)[C@H](O)[C@H]9O)cc8)nn7)O[C@@H]6CO)nn5)O[C@@H]4CO)nn3)cc2)[C@H](O)[C@@H](O)[C@H]1O`, the ΔH was -15.2 ± 0.2 kcal/mol (lecA; isothermal titration calorimetry; 25 °C).
